Assay results collected from several papers.
Parts stem from different laboratories: compare values within a part only.
Chain of UniProt P10721 (whole entry, unmodified, looked up): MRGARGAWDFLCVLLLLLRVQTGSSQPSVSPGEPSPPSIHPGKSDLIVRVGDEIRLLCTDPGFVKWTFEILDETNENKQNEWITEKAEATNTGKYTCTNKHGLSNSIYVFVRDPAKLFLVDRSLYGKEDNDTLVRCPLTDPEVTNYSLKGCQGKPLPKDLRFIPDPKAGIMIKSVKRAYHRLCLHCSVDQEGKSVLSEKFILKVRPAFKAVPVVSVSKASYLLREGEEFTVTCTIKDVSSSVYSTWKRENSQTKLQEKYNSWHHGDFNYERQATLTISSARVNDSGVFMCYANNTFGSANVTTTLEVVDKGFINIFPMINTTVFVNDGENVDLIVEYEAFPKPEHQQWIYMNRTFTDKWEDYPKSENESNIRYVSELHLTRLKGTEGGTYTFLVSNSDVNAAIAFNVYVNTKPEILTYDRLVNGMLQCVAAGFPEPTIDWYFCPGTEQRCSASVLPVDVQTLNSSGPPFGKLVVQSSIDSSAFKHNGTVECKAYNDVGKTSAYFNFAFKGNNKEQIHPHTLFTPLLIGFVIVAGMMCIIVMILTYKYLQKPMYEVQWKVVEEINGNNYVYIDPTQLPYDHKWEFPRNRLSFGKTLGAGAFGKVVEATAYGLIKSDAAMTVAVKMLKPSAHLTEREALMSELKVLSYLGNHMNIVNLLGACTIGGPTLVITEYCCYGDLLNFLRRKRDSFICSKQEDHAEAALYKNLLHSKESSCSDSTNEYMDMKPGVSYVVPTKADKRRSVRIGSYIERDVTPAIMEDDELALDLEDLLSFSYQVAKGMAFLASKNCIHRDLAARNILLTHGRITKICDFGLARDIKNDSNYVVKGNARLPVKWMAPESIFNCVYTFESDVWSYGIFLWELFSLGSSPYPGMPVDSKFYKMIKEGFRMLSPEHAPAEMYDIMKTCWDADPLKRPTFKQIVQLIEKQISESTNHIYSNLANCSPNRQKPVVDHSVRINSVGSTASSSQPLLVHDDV
Chain of UniProt O75385 (whole entry, looked up): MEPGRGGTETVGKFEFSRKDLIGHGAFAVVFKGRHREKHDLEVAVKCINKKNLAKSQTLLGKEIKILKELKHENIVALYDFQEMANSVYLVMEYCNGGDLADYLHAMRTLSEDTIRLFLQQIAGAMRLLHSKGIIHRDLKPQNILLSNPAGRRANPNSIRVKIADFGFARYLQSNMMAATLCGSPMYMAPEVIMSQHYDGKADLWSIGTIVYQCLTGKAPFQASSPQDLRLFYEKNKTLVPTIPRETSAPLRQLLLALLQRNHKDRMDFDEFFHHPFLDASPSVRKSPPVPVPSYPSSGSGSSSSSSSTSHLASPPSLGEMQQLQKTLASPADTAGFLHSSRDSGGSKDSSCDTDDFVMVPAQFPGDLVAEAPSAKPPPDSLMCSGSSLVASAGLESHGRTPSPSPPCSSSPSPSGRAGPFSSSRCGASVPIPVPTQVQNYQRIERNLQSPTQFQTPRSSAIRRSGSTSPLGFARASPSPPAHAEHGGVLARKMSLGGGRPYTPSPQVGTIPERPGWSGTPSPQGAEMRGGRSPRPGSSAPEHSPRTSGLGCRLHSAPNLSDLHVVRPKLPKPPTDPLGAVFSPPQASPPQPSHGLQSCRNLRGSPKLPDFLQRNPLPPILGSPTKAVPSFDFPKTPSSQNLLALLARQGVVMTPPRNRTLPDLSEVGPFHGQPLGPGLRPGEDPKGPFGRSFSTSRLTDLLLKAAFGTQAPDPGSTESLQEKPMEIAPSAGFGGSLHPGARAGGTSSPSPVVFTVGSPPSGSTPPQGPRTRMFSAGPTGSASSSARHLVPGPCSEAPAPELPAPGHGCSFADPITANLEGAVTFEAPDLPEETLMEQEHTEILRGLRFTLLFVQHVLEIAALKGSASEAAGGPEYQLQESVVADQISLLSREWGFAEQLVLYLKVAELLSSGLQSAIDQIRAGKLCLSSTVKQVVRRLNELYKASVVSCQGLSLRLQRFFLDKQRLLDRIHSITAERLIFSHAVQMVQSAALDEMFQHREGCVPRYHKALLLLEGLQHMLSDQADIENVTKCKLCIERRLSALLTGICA
Chain of UniProt Q13555 (whole entry, looked up): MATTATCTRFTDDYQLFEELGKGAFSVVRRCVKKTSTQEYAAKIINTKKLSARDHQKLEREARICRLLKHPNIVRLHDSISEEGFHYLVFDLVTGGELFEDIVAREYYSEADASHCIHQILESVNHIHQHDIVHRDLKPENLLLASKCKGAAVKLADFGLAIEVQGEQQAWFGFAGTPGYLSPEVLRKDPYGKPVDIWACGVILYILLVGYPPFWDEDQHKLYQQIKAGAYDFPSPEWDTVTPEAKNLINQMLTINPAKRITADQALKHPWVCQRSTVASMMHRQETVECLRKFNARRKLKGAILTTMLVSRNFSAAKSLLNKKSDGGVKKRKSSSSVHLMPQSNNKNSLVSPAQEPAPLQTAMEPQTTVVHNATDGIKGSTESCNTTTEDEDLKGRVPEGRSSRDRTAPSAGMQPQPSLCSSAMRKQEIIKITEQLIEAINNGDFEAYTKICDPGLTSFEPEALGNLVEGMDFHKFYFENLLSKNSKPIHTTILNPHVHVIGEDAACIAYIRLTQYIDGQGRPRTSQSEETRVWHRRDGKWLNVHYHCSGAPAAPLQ
Chain of UniProt P52333 (whole entry, looked up): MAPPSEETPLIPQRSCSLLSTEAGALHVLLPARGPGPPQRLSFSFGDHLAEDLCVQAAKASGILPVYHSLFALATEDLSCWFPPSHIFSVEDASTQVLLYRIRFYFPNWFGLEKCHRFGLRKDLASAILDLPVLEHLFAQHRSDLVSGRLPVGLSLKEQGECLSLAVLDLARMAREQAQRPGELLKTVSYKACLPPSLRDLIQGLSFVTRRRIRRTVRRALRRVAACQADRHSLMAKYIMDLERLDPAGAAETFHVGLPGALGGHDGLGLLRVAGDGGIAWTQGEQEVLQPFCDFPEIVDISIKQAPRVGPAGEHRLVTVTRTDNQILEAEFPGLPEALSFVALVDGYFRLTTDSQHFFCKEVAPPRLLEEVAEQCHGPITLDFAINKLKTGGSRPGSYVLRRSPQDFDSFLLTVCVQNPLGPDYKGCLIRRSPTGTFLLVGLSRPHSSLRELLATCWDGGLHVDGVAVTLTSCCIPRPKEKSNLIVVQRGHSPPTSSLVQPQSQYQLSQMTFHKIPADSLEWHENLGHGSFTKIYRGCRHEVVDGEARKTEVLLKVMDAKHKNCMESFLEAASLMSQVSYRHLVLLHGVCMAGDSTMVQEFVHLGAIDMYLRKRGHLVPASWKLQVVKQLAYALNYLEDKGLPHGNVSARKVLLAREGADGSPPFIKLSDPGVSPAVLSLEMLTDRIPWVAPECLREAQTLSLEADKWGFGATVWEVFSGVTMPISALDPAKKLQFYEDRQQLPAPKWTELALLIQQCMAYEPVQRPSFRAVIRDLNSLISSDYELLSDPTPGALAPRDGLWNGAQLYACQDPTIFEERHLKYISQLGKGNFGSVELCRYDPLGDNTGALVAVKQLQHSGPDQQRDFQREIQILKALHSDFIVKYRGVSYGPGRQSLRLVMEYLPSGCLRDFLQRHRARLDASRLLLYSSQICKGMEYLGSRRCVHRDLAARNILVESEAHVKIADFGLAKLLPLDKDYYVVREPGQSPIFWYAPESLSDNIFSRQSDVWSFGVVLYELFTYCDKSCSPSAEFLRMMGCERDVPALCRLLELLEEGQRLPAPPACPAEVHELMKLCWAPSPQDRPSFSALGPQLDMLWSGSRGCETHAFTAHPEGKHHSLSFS
Chain of UniProt Q9Y6M4 (whole entry, looked up): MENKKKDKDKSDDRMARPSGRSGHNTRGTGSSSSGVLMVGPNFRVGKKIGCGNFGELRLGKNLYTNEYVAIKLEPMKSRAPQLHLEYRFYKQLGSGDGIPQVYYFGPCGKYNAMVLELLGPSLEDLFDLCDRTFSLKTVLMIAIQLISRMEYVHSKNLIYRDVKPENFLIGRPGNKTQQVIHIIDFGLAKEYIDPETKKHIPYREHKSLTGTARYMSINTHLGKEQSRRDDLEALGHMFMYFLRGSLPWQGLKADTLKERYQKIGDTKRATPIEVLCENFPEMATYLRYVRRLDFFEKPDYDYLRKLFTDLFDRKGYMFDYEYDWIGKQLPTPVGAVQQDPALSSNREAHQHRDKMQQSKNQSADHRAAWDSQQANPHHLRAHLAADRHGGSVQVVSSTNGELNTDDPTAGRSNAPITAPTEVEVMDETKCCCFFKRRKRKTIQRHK
Chain of UniProt P22607 (whole entry, looked up): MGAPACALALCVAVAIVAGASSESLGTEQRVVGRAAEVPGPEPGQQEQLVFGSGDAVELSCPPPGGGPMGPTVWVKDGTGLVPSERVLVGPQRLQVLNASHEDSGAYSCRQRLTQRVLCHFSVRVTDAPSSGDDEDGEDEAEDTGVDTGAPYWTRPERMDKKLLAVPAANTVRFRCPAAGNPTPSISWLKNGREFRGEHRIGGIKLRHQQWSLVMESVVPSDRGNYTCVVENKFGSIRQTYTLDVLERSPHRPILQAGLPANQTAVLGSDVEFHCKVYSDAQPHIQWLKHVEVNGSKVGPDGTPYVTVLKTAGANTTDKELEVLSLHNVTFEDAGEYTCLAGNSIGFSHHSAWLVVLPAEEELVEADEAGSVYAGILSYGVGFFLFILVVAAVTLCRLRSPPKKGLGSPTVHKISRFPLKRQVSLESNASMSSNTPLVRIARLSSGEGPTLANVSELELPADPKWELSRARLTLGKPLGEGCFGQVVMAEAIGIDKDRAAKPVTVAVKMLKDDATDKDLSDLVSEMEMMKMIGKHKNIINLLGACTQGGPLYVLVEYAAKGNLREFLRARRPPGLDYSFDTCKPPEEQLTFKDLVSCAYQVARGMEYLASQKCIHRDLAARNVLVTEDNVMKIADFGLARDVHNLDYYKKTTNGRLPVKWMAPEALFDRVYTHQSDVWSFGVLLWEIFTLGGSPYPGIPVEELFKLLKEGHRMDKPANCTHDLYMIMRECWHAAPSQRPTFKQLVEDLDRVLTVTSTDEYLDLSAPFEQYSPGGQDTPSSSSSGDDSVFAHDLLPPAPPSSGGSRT

Series 1 — SMILES: COc1ccc(Cl)cc1NC(=O)Nc1cc(C)nc2ccccc12; read-out: enzyme activity; action: inhibitor; concentration: 0.5 µM; relative to: control; measurement: remaining activity
FGFR3 (Homo sapiens, UniProt P22607): 96.3%
EPHA3 (Homo sapiens, UniProt P29320): 99.1%
RPS6KA2 (Homo sapiens, UniProt Q15349): 99.8%
CSNK1G3 (Homo sapiens, UniProt Q9Y6M4): 95.7%
MST1R (Homo sapiens, UniProt Q04912): 82.4%
WEE1 (Homo sapiens, UniProt P30291): 89%
TEK (Homo sapiens, UniProt Q02763): 96.8%
NEK6 (Homo sapiens, UniProt Q9HC98): 97.8%
LCK (Homo sapiens, UniProt P06239): 98.2%
MAP2K2 (Homo sapiens, UniProt P36507): 94.1%
NEK1 (Homo sapiens, UniProt Q96PY6): 96.3%
GRK7 (Homo sapiens, UniProt Q8WTQ7): 101%
JAK3 (Homo sapiens, UniProt P52333): 103%

Series 2 — technique: protein-binding microarray; molecule type: double-stranded DNA, one strand shown; matrix: in vitro; concentration: not given; reading: higher = stronger binding; measurement: E-score
Target: Max dimerization protein 1, bHLH-zipper, MAX partner unstated (MXD1, Homo sapiens, UniProt Q05195, residues 56-136)
Setting: k-mer, scored over probes, only values ≥0.25
Residues (chain): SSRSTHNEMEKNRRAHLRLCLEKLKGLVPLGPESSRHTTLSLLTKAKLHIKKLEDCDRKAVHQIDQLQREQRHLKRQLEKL
CCATGCGC: 0.424
AACGCACA: 0.301
GGCATGCA: 0.302
ACCCCCGT: 0.251
CATGGAAC: 0.273
CCCCCCCA: 0.37
CAGGTGGC: 0.281
GGGCACGA: 0.271

Series 3 — read-out: cell-free assay; technique: competition with immobilised ligand; concentration: 1 µM; measurement: remaining binding
SMILES: Cc1cc(NC(=O)c2cccc(S(F)(F)(F)(F)F)c2)cc(-n2ccn3nc(-c4cccnc4)cc23)c1
EPHA4 (Homo sapiens, UniProt P54764): 76%
ZAP70 (Homo sapiens, UniProt P43403): 100%
ULK1 (Homo sapiens, UniProt O75385): 100%
CDKL2 (Homo sapiens, UniProt Q92772): 100%
CAMK1G (Homo sapiens, UniProt Q96NX5): 100%
LRRK2 (Homo sapiens, UniProt Q5S007): 74.6%
MAK (Homo sapiens, UniProt P20794): 100%
KIT (Homo sapiens, UniProt P10721, V559D): 73.5%
Tyrosine-protein kinase ABL1, phosphorylated (ABL1, Homo sapiens, UniProt P00519, H396P): 100%
FGR (Homo sapiens, UniProt P09769): 100%
SLK (Homo sapiens, UniProt Q9H2G2): 95.2%
STK17A (Homo sapiens, UniProt Q9UEE5): 100%
CAMK2G (Homo sapiens, UniProt Q13555): 100%

Further values, each from its own experiment — partner: YWHAH (Homo sapiens, UniProt Q04917); technique: cross-linking MS; setting: hits only
SFN (Homo sapiens, UniProt P31947)
interaction screen: cross-linked

YWHAB (Homo sapiens, UniProt P31946)
interaction screen: cross-linked

Excerpt of the above (series 1):
MAP2K2 (Homo sapiens, UniProt P36507): 94.1%
NEK1 (Homo sapiens, UniProt Q96PY6): 96.3%
GRK7 (Homo sapiens, UniProt Q8WTQ7): 101%
